Experimental data of several laboratories.
± marks the error that the study gave. Converted amounts (≈) assume the structure as drawn.
rep main protease: Replicase polyprotein 1ab, main protease (rep, Severe acute respiratory syndrome coronavirus 2, UniProt P0DTD1)

Compound	tested on	test	system	setting	how to read	quantity	result
Nc1ncnc2c([C@@H]3N[C@H](CO)[C@@H](O)[C@H]3O)c[nH]c12	Middle East respiratory syndrome-related coronavirus	viral replication	Vero C1008, Jordan N3	25 µM	–	inhibition	31.4%
O=C(O[C@@H]1Cc2c(O)cc(O)cc2O[C@@H]1c1cc(O)c(O)c(O)c1)c1cc(O)c(O)c(O)c1	SARS-CoV-2	viral replication	Vero E6	1.562 µM	baseline: mean of replicates	CPE inhibition	0%
CC1(C)CC[C@@]2(CO)C(=C3C=C[C@@H]4[C@@]5(C)CC[C@H](O)[C@@](C)(CO)[C@@H]5CC[C@@]4(C)[C@]3(C)C[C@@H]2O)C1	rep main protease	reporter gene (mKate2), inhibitor	–	20 µM	–	inhibition	0.0675%
O=C1NCN(c2ccccc2)C12CCN(CCCC(c1ccc(F)cc1)c1ccc(F)cc1)CC2	SARS-CoV-2	viral replication, GFP plate reader screen	–	cell-based	–	EC50	> 100 µM
COCCCNC(=O)C1CCN(Cc2cc3ccccc3n2Cc2cccc(Cl)c2)CC1	SARS-CoV-2	cytopathic effect	USA_WA1/2020	round 2, 5-point	–	efficacy	50.1%
c1ccc(C(c2ccccc2)N2CCN(CCCC3(c4ccccc4)OCCO3)CC2)cc1	SARS-CoV-2	viral replication, high-content imaging screen	–	cell-based	–	EC50	10 µM
COc1ccc(S(=O)(=O)NCCNc2nc(C)nc3sccc23)cc1	Lassa mammarenavirus	viral replication	Huh-7	10 µM, 72 h	–	remaining activity	39%
COc1ccc(Nc2nc(Nc3ccc(OC)cc3OC)nc(N3CCOCC3)n2)c(OC)c1	SARS-CoV-2	cytopathic effect, cell-based CPE	USA_WA1/2020	round 2, 5-point dilution	–	AC50	3.16 µM
CN(C)CCOC(c1ccc(Cl)cc1)c1ccccn1 (stereo not drawn)	Ebola virus Zaire	pseudovirus entry	A549	–	baseline: CC50 over IC50	selectivity index	> 3
CC1CCCN(CCCNC(=O)c2cc(Sc3ccc(F)cc3)nc3ccccc23)C1 (stereo not drawn)	SARS-CoV-2	cytopathic effect	USA_WA1/2020	retest 8-point	–	efficacy	90.8%
Cn1cnc(Cn2c(=O)[nH]/c(=N\c3cc4cn(C)nc4cc3Cl)n(Cc3cc(F)c(F)cc3F)c2=O)n1	–	–	human, moderate renal impairment	oral, 375 mg, treatment-related decreased GFR, Mild severity	–	patients with adverse event	0%
O=C(Nc1ccc(N2CCCN(C(=O)c3cnccn3)CC2)nc1)c1cccc([N+](=O)[O-])c1	Mycobacterium tuberculosis	bacterial growth	H37Ra-lux	168 h	–	IC90	> 64 µM
CC(C)=CCc1c(O)ccc(C(=O)/C=C/c2ccc(O)cc2)c1O	Severe acute respiratory syndrome coronavirus 2	cytopathic effect	Vero C1008	1.562 µM	–	inhibition	0%
COc1cc2c(O)c3c(c(-c4ccc5c(c4)OCO5)c2cc1OC)C(=O)N(/N=C/c1ccccc1)C3	VSV pseudotyped with Ebola virus GP	viral entry, refers to: GFP	HeLa	–	–	IC50	6.63 ± 0.437 µM
c1ccc(-c2ncn(CCCc3cccnc3)c2C2CC2)cc1	Lassa mammarenavirus	viral replication	Huh-7	10 µM, 72 h	–	remaining activity	33%
O=C(N1CCC2(CC1)CC(CNS(=O)(=O)CCCCl)CCO2)C1(c2ccccc2)CCCC1 (stereo not drawn)	Venezuelan equine encephalitis virus	viral replication	–	–	–	EC50	10 µM
Cc1nc2n(n1)CC(=O)N[C@@H](C(C)C)CN(CC(C)C)CC(=O)N[C@@H](CC(C)C)c1nc(cs1)C(=O)N[C@H]2Cc1ccccc1	Lassa mammarenavirus	viral replication	Huh-7	10 µM, 72 h	–	remaining activity	84%
CCc1c(C(=O)C(N)=O)c2c(OCC(=O)O)cccc2n1Cc1ccccc1	Daboia russelii	–	C2C12	100 µM, together with: Daboia russelii venom MH	baseline: venom alone	viability difference	-59.4%
Cc1ccc(-c2cn(CC3CCN(c4cc(C)nc(N)n4)CC3)nn2)cc1	Lassa mammarenavirus	viral replication	Huh-7	10 µM, 72 h	–	remaining activity	41%
COC(=O)CC[C@H](NC(=O)[C@H](CC(=O)OC)NC(=O)OCc1ccccc1)C(=O)N[C@H](C(=O)N[C@@H](CC(=O)OC)C(=O)CF)C(C)C	rep main protease	reporter gene (mKate2), inhibitor	–	20 µM	–	inhibition	-0.475%
Cc1ccc(NC(=O)c2cc3c(=O)n4cccc(C)c4nc3n2C)cc1Cl	Severe acute respiratory syndrome coronavirus 2	viral replication, inhibitor, qPCR	Vero C1008	–	–	EC90	2.6 µM

Compound	tested on	test	system	setting	how to read	quantity	result
O=c1ccc2ccc(OCCCCN3CCN(c4cccc5sccc45)CC3)cc2[nH]1	SARS-CoV-2	viral replication, GFP plate reader screen	–	cell-based	–	EC50	> 100 µM
Cc1ccc(CN2CCN(C)C(=O)[C@H](C)NC(=O)CN(C)C(=O)[C@@H](Cc3c[nH]c4ccccc34)NC(=O)c3csc(n3)[C@H](CC(C)C)NC(=O)C2)cc1	Lassa mammarenavirus	viral replication	Huh-7	10 µM, 72 h	–	remaining activity	66%
OC(CNCC(O)C1CCc2cc(F)ccc2O1)C1CCc2cc(F)ccc2O1 (stereo not drawn)	SARS-CoV-2	viral replication, high-content imaging screen	–	cell-based	–	EC50	> 100 µM
O=C(CC1CCCCC1)Nc1ncc(Cc2cccc3ccccc23)s1	Histoplasma capsulatum	microbial growth	–	–	–	MIC	0.6 to 1.3 µM (≈ 0.219 to 0.474 µg/mL)
CNCC(O)CC12CCC(c3ccccc31)c1ccccc12 (stereo not drawn)	SARS-CoV-2	viral replication, GFP plate reader screen	–	cell-based	–	EC50	> 100 µM
Cc1ccc(CN(C)C(=O)c2n[nH]c(N)c2-c2ccccc2)o1	Lassa mammarenavirus	viral replication	Huh-7	10 µM, 72 h	–	remaining activity	60%
CN(C)c1ccc(-c2nc(-c3cccs3)c(-c3cccs3)[nH]2)cc1	SARS-CoV-2	cytopathic effect	USA_WA1/2020	retest, 8-point, duplicates	–	maximum response	56.4%
Cn1c(=O)ccc2ccc(F)c(CCNC[C@H]3CN(c4cnc5c(n4)NC(=O)CO5)C(=O)O3)c21	Legionella pneumophila	–	–	–	–	MIC90	< 0.015 µg/mL
O=C1NCCCOc2cccc(c2)C2c3ccc(cc3CCN2C(=O)c2ccccn2)Oc2ccc(O)c1c2 (stereo not drawn)	Lassa mammarenavirus	viral replication	Huh-7	10 µM, 72 h	–	remaining activity	62%
CO/C1=C\C(C)=C\[C@@H](C)[C@@H](O)[C@@H](C)C/C(C)=C/C=C/[C@H](OC)[C@@H]([C@@H](C)[C@@H](O)[C@H](C)[C@@]2(O)C[C@@H](O)[C@H](C)[C@@H](C(C)C)O2)OC1=O	Ebola virus	viral replication	HeLa ATP6V0a2 knockdown	concentration not given	baseline: non-knockdown cells	EBOV-GFP infection potency change	no effect
CCC1CCCCN1CCCNC(=O)c1sc2nc(C)cc(C)c2c1-n1cccc1 (stereo not drawn)	SARS-CoV-2	cytopathic effect	USA_WA1/2020	round 1, 5-point	–	efficacy	102%
CN1CCC(c2cc3cc(Cl)ccc3o2)CC1	SARS-CoV-2	viral replication, high-content imaging screen	BetaCov/Belgium/GHB-03021/2020	cell-based	–	EC50	> 100 µM
CNC(=O)[C@@H](NC(=O)[C@H](CC(C)C)[C@H](O)C(=O)NO)C(C)(C)C	Daboia russelii	–	mouse	120 µg, up to 24 h, together with: southern venom preincubated	–	time of death	> 24 h
CC[C@H](C)[C@H](NC(=O)[C@H](CC(C)C)NC(=O)[C@H](Cc1c[nH]c2ccccc12)NC(=O)[C@H](CCC(N)=O)NC(=O)[C@@H](NC(=O)[C@H](Cc1ccccc1)NC(=O)[C@H](C)NC(=O)[C@H](CCCCNC(=O)COCCOCCNC(=O)COCCOCCNC(=O)CC[C@H](NC(=O)CCCCCCCCCCCCCCCCCCC(=O)O)C(=O)O)NC(=O)[C@H](CCC(N)=O)NC(=O)[C@H](C)NC(=O)[C@@H](NC(=O)[C@H](CCCCN)NC(=O)[C@H](CC(=O)O)NC(=O)[C@H](CC(C)C)NC(=O)C(C)(C)NC(=O)[C@@H](NC(=O)[C@H](CO)NC(=O)[C@H](Cc1ccc(O)cc1)NC(=O)[C@H](CC(=O)O)NC(=O)[C@H](CO)NC(=O)[C@@H](NC(=O)[C@H](Cc1ccccc1)NC(=O)[C@@H](NC(=O)CNC(=O)[C@H](CCC(=O)O)NC(=O)C(C)(C)NC(=O)[C@@H](N)Cc1ccc(O)cc1)[C@@H](C)O)[C@@H](C)O)[C@@H](C)CC)[C@@H](C)CC)C(C)C)C(=O)N[C@@H](C)C(=O)NCC(=O)NCC(=O)N1CCC[C@H]1C(=O)N[C@@H](CO)C(=O)N[C@@H](CO)C(=O)NCC(=O)N[C@@H](C)C(=O)N1CCC[C@H]1C(=O)N1CCC[C@H]1C(=O)N1CCC[C@H]1C(=O)N[C@@H](CO)C(N)=O	–	refers to: anti-drug antibodies	patients with type 2 diabetes	0.5 mg, postbaseline, proof of concept	–	subjects with treatment-emergent ADA	0%
CNC1CC(c2ccc(Cl)c(Cl)c2)c2ccccc21 (stereo not drawn)	SARS-CoV-2	viral replication, GFP plate reader screen	–	cell-based	–	EC50	8.32 µM
Cc1ccc(Nc2ccnc(N3CCCC3C(=O)NCCCc3ccccc3)n2)cc1 (stereo not drawn)	SARS-CoV-2	cytopathic effect	USA_WA1/2020	round 1, 5-point	–	maximum response	36.1%
Nc1ccn([C@@H]2O[C@H](CO)[C@@H](O)[C@H]2F)c(=O)n1	Lassa virus	viral replication	–	concentration not given, compound present throughout time course	–	viral infection	inhibited
Clc1ccc2nc(N3CCC(NCCc4cccnc4)CC3)sc2c1	SARS-CoV-2	cytopathic effect, cell-based CPE	USA_WA1/2020	round 2, 5-point dilution	–	AC50	14.1 µM
CCCSc1ccccc1N1CCN(CCCCn2c(=O)[nH]c3ccccc3c2=O)CC1	SARS-CoV-2	viral replication, GFP plate reader screen	–	cell-based	–	EC50	9.12 µM
COc1cccc(-c2ccccc2NC(=O)C2CCN(Cc3ccccc3F)CC2)c1	SARS-CoV-2	cytopathic effect	USA_WA1/2020	round 1, 5-point	–	maximum response	88.3%
COC(=O)C(N)Cc1ccc(OP2(=O)COC(Cn3ccc(N)nc3=O)CO2)cc1 (stereo not drawn)	vaccinia virus	viral replication	–	–	–	IC50	25 µM

Some of these lines once more:
Compound	tested on	test	system	setting	how to read	quantity	result
O=C1NCN(c2ccccc2)C12CCN(CCCC(c1ccc(F)cc1)c1ccc(F)cc1)CC2	SARS-CoV-2	viral replication, GFP plate reader screen	–	cell-based	–	EC50	> 100 µM
c1ccc(-c2ncn(CCCc3cccnc3)c2C2CC2)cc1	Lassa mammarenavirus	viral replication	Huh-7	10 µM, 72 h	–	remaining activity	33%
CNC(=O)[C@@H](NC(=O)[C@H](CC(C)C)[C@H](O)C(=O)NO)C(C)(C)C	Daboia russelii	–	mouse	120 µg, up to 24 h, together with: southern venom preincubated	–	time of death	> 24 h
CC[C@H](C)[C@H](NC(=O)[C@H](CC(C)C)NC(=O)[C@H](Cc1c[nH]c2ccccc12)NC(=O)[C@H](CCC(N)=O)NC(=O)[C@@H](NC(=O)[C@H](Cc1ccccc1)NC(=O)[C@H](C)NC(=O)[C@H](CCCCNC(=O)COCCOCCNC(=O)COCCOCCNC(=O)CC[C@H](NC(=O)CCCCCCCCCCCCCCCCCCC(=O)O)C(=O)O)NC(=O)[C@H](CCC(N)=O)NC(=O)[C@H](C)NC(=O)[C@@H](NC(=O)[C@H](CCCCN)NC(=O)[C@H](CC(=O)O)NC(=O)[C@H](CC(C)C)NC(=O)C(C)(C)NC(=O)[C@@H](NC(=O)[C@H](CO)NC(=O)[C@H](Cc1ccc(O)cc1)NC(=O)[C@H](CC(=O)O)NC(=O)[C@H](CO)NC(=O)[C@@H](NC(=O)[C@H](Cc1ccccc1)NC(=O)[C@@H](NC(=O)CNC(=O)[C@H](CCC(=O)O)NC(=O)C(C)(C)NC(=O)[C@@H](N)Cc1ccc(O)cc1)[C@@H](C)O)[C@@H](C)O)[C@@H](C)CC)[C@@H](C)CC)C(C)C)C(=O)N[C@@H](C)C(=O)NCC(=O)NCC(=O)N1CCC[C@H]1C(=O)N[C@@H](CO)C(=O)N[C@@H](CO)C(=O)NCC(=O)N[C@@H](C)C(=O)N1CCC[C@H]1C(=O)N1CCC[C@H]1C(=O)N1CCC[C@H]1C(=O)N[C@@H](CO)C(N)=O	–	refers to: anti-drug antibodies	patients with type 2 diabetes	0.5 mg, postbaseline, proof of concept	–	subjects with treatment-emergent ADA	0%
COC(=O)CC[C@H](NC(=O)[C@H](CC(=O)OC)NC(=O)OCc1ccccc1)C(=O)N[C@H](C(=O)N[C@@H](CC(=O)OC)C(=O)CF)C(C)C	rep main protease	reporter gene (mKate2), inhibitor	–	20 µM	–	inhibition	-0.475%
